Literature values as cited in several papers.
Each line is one published result; not all experiments were run side by side.

| SMILES | organism | test | test system | MIC |
| --- | --- | --- | --- | --- |
| Oc1c(Br)cc(I)c2nc3cc(Cl)c(Cl)cc3nc12 | Staphylococcus aureus |  | MRSA | 0.3 µM |
| Cc1ccc(/N=N/c2c(C)c(C(=O)Nc3ccccc3)c(N)n(-c3ccccc3)c2=O)cc1 | Bacillus subtilis |  |  | 0.98 µg/mL |
| CC(=O)N1CCc2cc(S(=O)(=O)N3CCN(c4cc(Cl)cc(C(F)(F)F)c4)CC3)ccc21 | Klebsiella pneumoniae |  | 10031 | 1.6 µg/mL |
| COC(=O)c1cnc(-c2nc(C)cs2)cc1C(=O)OC.O.O=[N+]([O-])[O-].O=[N+]([O-])[O-].[Cu+2] | Candida albicans |  |  | 31.2 µg/mL |
| C/C=C1\NC(=O)[C@H](Cc2ccccc2)NC(=O)[C@H](C(C)C)NC(=O)[C@H](Cc2ccccc2)NC(=O)[C@H](CCC(N)=O)NC(=O)[C@H](Cc2c[nH]c3ccccc23)NC(=O)[C@H]2CSC[C@@H](C(=O)N[C@@H](CO)C(=O)O)NC(=O)[C@H](CSC[C@H]3NC(=O)[C@H]([C@@H](C)CC)NC(=O)[C@H](NC(=O)[C@H](Cc4c[nH]cn4)NC(=O)[C@@H](NC(=O)[C@@H](NC(=O)CNC(=O)[C@H](CO)NC(=O)CNC(=O)CNC(=O)[C@@H](N)CCCCN)C(C)C)[C@@H](C)CC)[C@H](C)SC[C@H](NC(=O)[C@H](CCC(=O)O)NC(=O)[C@H](Cc4c[nH]cn4)NC3=O)C(=O)N[C@@H](CC(N)=O)C(=O)N[C@@H](CCSC)C(=O)N[C@@H](CC(N)=O)C(=O)N2)NC1=O | Lactococcus lactis subsp. cremoris |  | HP | 1.56 µM |
| CCn1cc(C(=O)NCCNCCO)c(=O)c2cc(OCc3ccc(C(F)(F)F)cc3)c(Cl)cc21 | Acinetobacter baumannii | growth | ATCC 19606 | 32 µg/mL |
| CC1(C)C2Cc3c(nc(O)c(C#N)c3-c3ccc(F)c(F)c3)C1C2 (stereo not shown) | Candida albicans |  |  | 15600 µg/mL |
| CSCC[C@H](NC(=O)[C@H](CCCNC(=N)N)NC(=O)[C@H](Cc1c[nH]c2ccccc12)NC(=O)[C@H](CCC(N)=O)NC(=O)[C@H](Cc1c[nH]c2ccccc12)NC(=O)[C@H](CCCNC(=N)N)NC(=O)[C@@H](N)CCCNC(=N)N)C(=O)N[C@@H](CCCCN)C(=O)N[C@@H](CCCCN)C(=O)N[C@@H](CC(C)C)C(=O)NCC(=O)NCCCC[C@H](NC(=O)CNC(=O)[C@H](CC(C)C)NC(=O)[C@H](CCCCN)NC(=O)[C@H](CCCCN)NC(=O)[C@H](CCSC)NC(=O)[C@H](CCCNC(=N)N)NC(=O)[C@H](Cc1c[nH]c2ccccc12)NC(=O)[C@H](CCC(N)=O)NC(=O)[C@H](Cc1c[nH]c2ccccc12)NC(=O)[C@H](CCCNC(=N)N)NC(=O)[C@@H](N)CCCNC(=N)N)C(=O)NCCCCCC(N)=O | Escherichia coli | broth microdilution | ATCC 11775 | 60 µM |
| CCN1CCC(CCNCc2cc3ccccc3nc2SCc2ccccc2)CC1 | Pseudomonas aeruginosa |  | multidrug-resistant | 16 to 64 µg/mL |
| CSCC[C@H](NC(=O)[C@H](CCCNC(=N)N)NC(=O)[C@H](Cc1c[nH]c2ccccc12)NC(=O)[C@H](CCC(N)=O)NC(=O)[C@H](Cc1c[nH]c2ccccc12)NC(=O)[C@H](CCCNC(=N)N)NC(=O)[C@@H](N)CCCNC(=N)N)C(=O)N[C@@H](CCCCN)C(=O)N[C@@H](CCCCN)C(=O)N[C@@H](CC(C)C)C(=O)NCC(=O)NCCCC[C@H](NC(=O)CNC(=O)[C@H](CC(C)C)NC(=O)[C@H](CCCCN)NC(=O)[C@H](CCCCN)NC(=O)[C@H](CCSC)NC(=O)[C@H](CCCNC(=N)N)NC(=O)[C@H](Cc1c[nH]c2ccccc12)NC(=O)[C@H](CCC(N)=O)NC(=O)[C@H](Cc1c[nH]c2ccccc12)NC(=O)[C@H](CCCNC(=N)N)NC(=O)[C@@H](N)CCCNC(=N)N)C(=O)NCCCCCC(=O)N[C@@H](CSSC[C@H](NC(=O)CCCCCNC(=O)[C@H](CCCCNC(=O)CNC(=O)[C@H](CC(C)C)NC(=O)[C@H](CCCCN)NC(=O)[C@H](CCCCN)NC(=O)[C@H](CCSC)NC(=O)[C@H](CCCNC(=N)N)NC(=O)[C@H](Cc1c[nH]c2ccccc12)NC(=O)[C@H](CCC(N)=O)NC(=O)[C@H](Cc1c[nH]c2ccccc12)NC(=O)[C@H](CCCNC(=N)N)NC(=O)[C@@H](N)CCCNC(=N)N)NC(=O)CNC(=O)[C@H](CC(C)C)NC(=O)[C@H](CCCCN)NC(=O)[C@H](CCCCN)NC(=O)[C@H](CCSC)NC(=O)[C@H](CCCNC(=N)N)NC(=O)[C@H](Cc1c[nH]c2ccccc12)NC(=O)[C@H](CCC(N)=O)NC(=O)[C@H](Cc1c[nH]c2ccccc12)NC(=O)[C@H](CCCNC(=N)N)NC(=O)[C@@H](N)CCCNC(=N)N)C(N)=O)C(N)=O | Escherichia coli | broth microdilution | ATCC 25922 | 15 µM |
| CCCC/C=C/C(=O)N[C@@H](Cc1cc(F)cc(F)c1)C(=O)OC | Bacillus subtilis |  |  | 8 µg/mL |
| N=C(N)NCCC[C@H](NC(=O)[C@H](Cc1c[nH]c2ccccc12)NC(=O)[C@H](CCC(N)=O)NC(=O)[C@H](Cc1c[nH]c2ccccc12)NC(=O)[C@H](CCCNC(=N)N)NC(=O)[C@@H](N)CCCNC(=N)N)C(=O)NCCCC[C@H](NC(=O)[C@H](CCCNC(=N)N)NC(=O)[C@H](Cc1c[nH]c2ccccc12)NC(=O)[C@H](CCC(N)=O)NC(=O)[C@H](Cc1c[nH]c2ccccc12)NC(=O)[C@H](CCCNC(=N)N)NC(=O)[C@@H](N)CCCNC(=N)N)C(=O)NCCCCCC(N)=O | Escherichia coli | broth microdilution | ATCC 25922 | 6 µM |
| C#CCN(Cc1ccccn1)Cc1ccccn1.F[P-](F)(F)(F)(F)F.[C-]#[O+].[C-]#[O+].[C-]#[O+].[Re+] | Bacillus subtilis, Staphylococcus aureus |  | incl. MRSA | > 512 µg/mL |

Excerpt of the above:
| SMILES | organism | test | test system | MIC |
| --- | --- | --- | --- | --- |
| CCCC/C=C/C(=O)N[C@@H](Cc1cc(F)cc(F)c1)C(=O)OC | Bacillus subtilis |  |  | 8 µg/mL |
| Oc1c(Br)cc(I)c2nc3cc(Cl)c(Cl)cc3nc12 | Staphylococcus aureus |  | MRSA | 0.3 µM |
